# Values quoted from earlier work that unrelated publications cite.
# Protocols differ between the studies behind these lines. ± marks the error that the study gave.
# pyrG: pyrG (Escherichia coli, UniProt P0A7E5)
# Sequence of UniProt P0A7E5 (whole entry, looked up): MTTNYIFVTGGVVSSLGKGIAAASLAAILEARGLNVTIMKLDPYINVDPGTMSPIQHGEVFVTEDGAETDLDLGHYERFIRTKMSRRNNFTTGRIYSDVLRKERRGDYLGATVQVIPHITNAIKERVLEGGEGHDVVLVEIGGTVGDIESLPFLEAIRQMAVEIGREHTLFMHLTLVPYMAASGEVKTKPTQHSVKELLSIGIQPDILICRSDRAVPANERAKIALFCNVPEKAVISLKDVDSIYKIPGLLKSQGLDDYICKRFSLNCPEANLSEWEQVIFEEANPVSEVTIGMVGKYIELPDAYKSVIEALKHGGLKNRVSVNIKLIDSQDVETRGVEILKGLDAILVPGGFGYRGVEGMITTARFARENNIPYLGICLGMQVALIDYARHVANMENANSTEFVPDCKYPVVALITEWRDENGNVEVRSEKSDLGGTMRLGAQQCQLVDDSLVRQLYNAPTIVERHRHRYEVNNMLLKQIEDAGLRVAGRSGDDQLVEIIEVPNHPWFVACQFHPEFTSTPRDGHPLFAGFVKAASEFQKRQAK
# gag-pol: Gag-Pol polyprotein (gag-pol, Human immunodeficiency virus 1, UniProt P12497)
# gag-pol integrase: Gag-Pol polyprotein, integrase (gag-pol, Human immunodeficiency virus 1, UniProt P12497)
# Sequence of UniProt P35354 (whole entry, looked up): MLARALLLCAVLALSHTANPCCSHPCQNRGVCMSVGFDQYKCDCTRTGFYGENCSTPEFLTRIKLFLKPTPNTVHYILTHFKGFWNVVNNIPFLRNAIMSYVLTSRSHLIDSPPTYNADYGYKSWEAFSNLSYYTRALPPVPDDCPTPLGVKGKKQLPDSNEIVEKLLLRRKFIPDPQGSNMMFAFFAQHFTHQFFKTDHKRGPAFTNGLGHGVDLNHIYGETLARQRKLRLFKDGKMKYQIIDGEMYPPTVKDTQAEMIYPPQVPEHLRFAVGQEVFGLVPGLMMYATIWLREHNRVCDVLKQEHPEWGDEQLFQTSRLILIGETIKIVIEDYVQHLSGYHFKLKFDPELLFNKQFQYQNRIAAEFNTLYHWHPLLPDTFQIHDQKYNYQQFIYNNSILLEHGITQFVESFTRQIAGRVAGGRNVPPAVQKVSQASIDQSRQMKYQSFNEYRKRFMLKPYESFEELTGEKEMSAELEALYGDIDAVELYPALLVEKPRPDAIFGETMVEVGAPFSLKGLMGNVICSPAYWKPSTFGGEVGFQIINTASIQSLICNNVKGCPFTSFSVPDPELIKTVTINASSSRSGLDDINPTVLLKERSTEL
# Sequence of UniProt P22303 (whole entry, looked up): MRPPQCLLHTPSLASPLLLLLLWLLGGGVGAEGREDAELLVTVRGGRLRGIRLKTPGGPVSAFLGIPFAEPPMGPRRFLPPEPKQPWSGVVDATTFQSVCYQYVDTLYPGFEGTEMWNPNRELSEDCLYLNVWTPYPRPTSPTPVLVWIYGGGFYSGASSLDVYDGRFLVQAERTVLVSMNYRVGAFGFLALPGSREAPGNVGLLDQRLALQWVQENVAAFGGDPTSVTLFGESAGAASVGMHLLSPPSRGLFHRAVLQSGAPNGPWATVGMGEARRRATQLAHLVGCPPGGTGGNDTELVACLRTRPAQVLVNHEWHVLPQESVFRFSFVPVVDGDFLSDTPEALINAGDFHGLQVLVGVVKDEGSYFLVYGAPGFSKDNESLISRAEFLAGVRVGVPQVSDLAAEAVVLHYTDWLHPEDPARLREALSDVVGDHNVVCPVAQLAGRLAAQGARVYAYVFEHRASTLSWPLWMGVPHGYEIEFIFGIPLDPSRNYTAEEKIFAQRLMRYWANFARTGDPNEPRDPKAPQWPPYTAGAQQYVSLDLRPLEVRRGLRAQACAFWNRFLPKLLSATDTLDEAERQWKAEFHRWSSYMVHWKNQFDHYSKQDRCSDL
# Sequence of UniProt P33534 (whole entry, looked up): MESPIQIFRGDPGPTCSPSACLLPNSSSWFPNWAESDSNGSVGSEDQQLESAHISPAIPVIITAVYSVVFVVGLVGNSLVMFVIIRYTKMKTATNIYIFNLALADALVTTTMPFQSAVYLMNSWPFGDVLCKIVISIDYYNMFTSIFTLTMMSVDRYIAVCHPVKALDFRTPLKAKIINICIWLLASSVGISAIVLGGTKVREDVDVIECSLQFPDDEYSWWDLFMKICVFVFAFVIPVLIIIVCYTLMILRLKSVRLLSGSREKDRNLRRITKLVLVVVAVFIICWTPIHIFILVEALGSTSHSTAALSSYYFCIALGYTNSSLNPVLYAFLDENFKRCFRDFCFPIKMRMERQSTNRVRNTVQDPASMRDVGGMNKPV
# Sequence of UniProt Q05941 (whole entry, looked up): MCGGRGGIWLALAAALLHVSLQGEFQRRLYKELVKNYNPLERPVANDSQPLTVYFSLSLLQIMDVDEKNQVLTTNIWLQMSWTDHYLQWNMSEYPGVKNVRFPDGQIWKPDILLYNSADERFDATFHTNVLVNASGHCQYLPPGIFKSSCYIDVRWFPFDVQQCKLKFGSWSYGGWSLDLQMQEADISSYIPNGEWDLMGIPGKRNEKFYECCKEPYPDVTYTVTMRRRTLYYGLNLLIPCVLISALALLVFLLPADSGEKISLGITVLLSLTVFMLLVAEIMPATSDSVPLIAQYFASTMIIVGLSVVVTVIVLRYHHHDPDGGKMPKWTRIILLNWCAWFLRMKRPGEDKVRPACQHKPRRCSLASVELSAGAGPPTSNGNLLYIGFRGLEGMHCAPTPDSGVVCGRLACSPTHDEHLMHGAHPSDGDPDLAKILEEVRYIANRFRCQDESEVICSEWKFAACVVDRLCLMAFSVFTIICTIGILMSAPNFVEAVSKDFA
# Sequence of UniProt P21554 (whole entry, looked up): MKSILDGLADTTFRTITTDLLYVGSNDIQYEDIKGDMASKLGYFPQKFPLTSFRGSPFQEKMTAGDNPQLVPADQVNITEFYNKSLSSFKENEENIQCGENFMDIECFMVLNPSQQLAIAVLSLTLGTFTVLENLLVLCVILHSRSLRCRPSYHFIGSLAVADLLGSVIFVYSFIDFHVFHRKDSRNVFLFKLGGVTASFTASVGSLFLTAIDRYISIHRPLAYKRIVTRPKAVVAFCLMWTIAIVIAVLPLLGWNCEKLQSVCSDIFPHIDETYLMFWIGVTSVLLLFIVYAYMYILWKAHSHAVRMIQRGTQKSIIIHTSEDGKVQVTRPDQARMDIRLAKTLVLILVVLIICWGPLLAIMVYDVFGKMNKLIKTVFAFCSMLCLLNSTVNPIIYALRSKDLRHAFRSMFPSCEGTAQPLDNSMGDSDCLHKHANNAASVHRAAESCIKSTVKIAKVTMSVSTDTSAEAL
# Sequence of UniProt Q96FL8 (whole entry, looked up): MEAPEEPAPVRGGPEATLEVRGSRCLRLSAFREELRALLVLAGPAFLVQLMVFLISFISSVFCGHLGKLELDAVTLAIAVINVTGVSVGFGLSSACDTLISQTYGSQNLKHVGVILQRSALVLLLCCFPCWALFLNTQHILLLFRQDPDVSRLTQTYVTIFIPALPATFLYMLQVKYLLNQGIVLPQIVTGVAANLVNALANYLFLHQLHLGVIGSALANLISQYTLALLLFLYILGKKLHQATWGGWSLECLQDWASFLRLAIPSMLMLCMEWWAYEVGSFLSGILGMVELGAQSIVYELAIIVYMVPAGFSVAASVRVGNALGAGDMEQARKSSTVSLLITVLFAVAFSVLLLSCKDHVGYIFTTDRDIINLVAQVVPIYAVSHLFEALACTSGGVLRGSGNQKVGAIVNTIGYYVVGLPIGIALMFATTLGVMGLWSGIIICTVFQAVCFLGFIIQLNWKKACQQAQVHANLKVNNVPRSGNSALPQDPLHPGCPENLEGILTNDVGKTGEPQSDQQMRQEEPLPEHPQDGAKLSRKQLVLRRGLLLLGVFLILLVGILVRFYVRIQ
SMILES,tested on,test,test system,conditions,endpoint,value
O=C(NC1C=C[C@H]2[C@H]3Cc4ccc(O)c5c4[C@@]2(CCN3CC2CC2)C1O5)c1cccc(I)c1 (stereo partly drawn),"Oprk1 (Mus musculus, UniProt P33534)",,,,Ki,0.006 nM
CCC1=C[C@@H]2Cc3nc4cc(Cl)ccc4c(N)c3[C@H](C1)C2,"ACHE (Homo sapiens, UniProt P22303)",,,,IC50,1.3 nM
Cc1c(C(=O)NCCCCO)nn(-c2ccc(Cl)cc2Cl)c1-c1ccc(Cl)cc1,CB1 receptor,binding,,,Ki,154 nM
CCN(CC)CCCC(C)Nc1ccnc2cc(Cl)ccc12 (stereo not drawn),"SLC47A1 (Homo sapiens, UniProt Q96FL8)","transport, inhibitor",,"MATE1, literature value, with: Metformin substrate",IC50,2500 nM
O=C(O)/C(=C/c1c(C(=O)O)[nH]c2cc(Cl)cc(Cl)c12)c1ccccc1,"Grin1 (Rattus norvegicus, UniProt P35439)",inhibitor,,historical measurement,IC50,22 nM
O=C(NCCc1cccc(Cl)c1)Nc1ccc(Cl)cc1,"CNR1 (Homo sapiens, UniProt P21554)","calcium flux, antagonist",,,IC50,30 nM
Nc1ccn([C@@H]2O[C@H](COP(=O)(O)OP(=O)(O)OP(=O)(O)O)[C@@H](O)[C@H]2F)c(=O)n1,pyrG,"enzyme activity, inhibitor",,"wild type, with: UTP 0.20 mM",IC50,600000 nM
CC(COc1ccc(Oc2ccccc2)cc1)Oc1ccccn1 (stereo not drawn),"CYP6P9a (Anopheles funestus, UniProt B5AII6)",,,,IC50,9900 nM
CCN1C[C@H](C)n2c(c(O)c3c(=O)n(Cc4ccc(F)c(Cl)c4)nc(C(=O)NC)c32)C1=O,gag-pol,concerted integration (full-site),HIV-1,,IC50,42 nM
Nc1ccn([C@@H]2O[C@H](COP(=O)(O)OP(=O)(O)OP(=O)(O)O)[C@@H](O)[C@H]2O)c(=O)n1,pyrG,"enzyme activity, inhibitor",,"wild type, with: UTP 0.20 mM",IC50,260000 nM
CN(C)C(=O)C(=O)N(C)c1nc(C(=O)NCc2ccc(F)cc2)c(O)c2ncccc12,gag-pol integrase,concerted integration (half-site),HIV-1,,IC50,700 nM
O=C(O)C1=CC(=C(c2ccc(O)c(C(=O)O)c2)c2ccc(O)c(C(=O)O)c2)C=CC1=O,HCV NS3 helicase,"helicase activity, inhibitor",,,IC50,300 nM
COc1cc(OC)c(OC)cc1C=O,"PTGS2 (Homo sapiens, UniProt P35354)",inhibitor,,,IC50,510000 nM
O=C(NCc1ccc(F)cc1)c1nc(N2CCCCS2(=O)=O)c2cccnc2c1O,gag-pol,concerted integration (full-site),HIV-1,,IC50,55 nM
Cc1ccc[n+](CCCCCCCCCCCC[n+]2cccc(C)c2)c1,neuronal nicotinic acetylcholine receptors,"nicotine-evoked [3H]-dopamine release, inhibitor",,concentration not given,IC50,2 to 5 nM
CN1CCc2[nH]c3ccccc3c2CC1,"Chrna7 (Rattus norvegicus, UniProt Q05941)",inhibitor,,with: 100 µM acetylcholine,IC50,6400 ± 500 nM
CCCCCOc1ccc(-c2ccc(-c3ccc(C(=O)N[C@H]4C[C@@H](O)[C@@H](O)NC(=O)[C@@H]5[C@@H](O)[C@@H](C)CN5C(=O)[C@H]([C@@H](C)O)NC(=O)[C@H]([C@H](O)[C@@H](O)c5ccc(O)cc5)NC(=O)[C@@H]5C[C@@H](O)CN5C(=O)[C@H]([C@@H](C)O)NC4=O)cc3)cc2)cc1,,,mild hepatic impairment patients,50 mg single dose,volume of distribution,39.4 ± 9.5 L
CC(=O)n1c2c(c3cc(C(=O)N4CCC(C)CC4)ccc31)CN(C1CCCC1)C2,CB2 receptor,binding,,,Ki,88.1 nM
O=C(O)C(=O)C=C(O)c1cn(Cc2ccc(F)cc2)c2cc(N3CCCC3)ccc2c1=O,gag-pol integrase,concerted integration (half-site),HIV-1,,IC50,1750 nM
C[C@H](CC[C@H](O)[C@](C)(O)CO)[C@H]1CC[C@@]2(C)C3=CC[C@H]4C(C)(C)C(=O)CC[C@]4(C)C3=CC[C@]12C,dengue virus helicase,"enzyme activity, inhibitor, FRET",,,IC50,500 nM
COC(=O)[C@@H]1C[C@H](OC(C)=O)C(=O)[C@H]2[C@@]1(C)CC[C@H]1C(=O)O[C@H](c3ccoc3)C[C@]21C,kappa opioid receptor T110S,,,,Ki,28 ± 5.3 nM

# A few entries again:
SMILES,tested on,test,test system,conditions,endpoint,value
CCN1C[C@H](C)n2c(c(O)c3c(=O)n(Cc4ccc(F)c(Cl)c4)nc(C(=O)NC)c32)C1=O,gag-pol,concerted integration (full-site),HIV-1,,IC50,42 nM
